Results pooled from the literature.
Each line is one published result; not all experiments were run side by side. ± marks the error that the study gave. ≈ marks a conversion by molar mass, not a printed value.

`CC(=O)N[C@H](CCCCNC(=O)C(C)F)C(=O)N[C@@H](CS)C(=O)N[C@@H](CS)C(=O)N[C@@H](CCC(=O)O)C(=O)N[C@@H](Cc1c[nH]cn1)C(=O)N[C@H](Cc1ccccc1)C(=O)N[C@@H](CCCNC(=N)N)C(=O)N[C@@H](Cc1c[nH]c2ccccc12)C(=O)N[C@@H](CS)C(=O)N[C@@H](CCCNC(=N)N)C(=O)N1CCC[C@H]1C(=O)N[C@H](C(N)=O)C(C)C` (some centres unmarked) [fluorine-18 labelled] has a tissue uptake of 0.84 ± 0.39 %ID/g (Foxn1 nude mouse A375M xenograft, tumour; intravenous, 2 h).
`COc1c(O)cc2oc3cc(O)c(CC=C(C)C)c(O)c3c(=O)c2c1CC=C(C)C`: “total serum concentration” 2.5 ± 0.2 µg/mL (deconjugation HPLC; Balb/c nu/nu tumour-bearing mice, serum; dose not given, 4 weeks).
`CCCCCOc1ccc(-c2ccc(-c3ccc(C(=O)N[C@H]4C[C@@H](O)[C@@H](O)NC(=O)[C@@H]5[C@@H](O)[C@@H](C)CN5C(=O)[C@H]([C@@H](C)O)NC(=O)[C@H]([C@H](O)[C@@H](O)c5ccc(O)cc5)NC(=O)[C@@H]5C[C@@H](O)CN5C(=O)[C@H]([C@@H](C)O)NC4=O)cc3)cc2)cc1`: “AUC(0-24) steady state median” 86300 ng·h/mL (patients aged sample B to <sample C years, plasma; intravenous, loading 200 then 100 mg daily).
With `CSCC[C@@H]1NC(=O)[C@H](CC(=O)O)NC(=O)CNC(=O)[C@H](CCCNC(=N)N)NC(=O)[C@H](C)NC(=O)[C@H](CCC(=O)O)NC(=O)[C@H](CCCNC(=N)N)NC(=O)[C@@H]2CSSC[C@@H]3NC(=O)[C@H](CO)NC(=O)[C@H]([C@@H](C)O)NC(=O)[C@@H]4CCCN4C(=O)[C@H](C)NC(=O)[C@H](Cc4c[nH]c5ccccc45)NC(=O)[C@H](CC(=O)O)NC(=O)CNC(=O)[C@H](CCCNC(=N)N)NC(=O)CNC(=O)[C@H](CCC(N)=O)NC(=O)[C@@H]4CCCN4C(=O)[C@@H](NC(=O)CNC(=O)C(C)F)CSSC[C@H](NC(=O)CNC(=O)[C@H](C)NC(=O)[C@H](CC(C)C)NC(=O)[C@H](CSSC[C@@H](C(=O)NCC(N)=O)NC(=O)[C@H]([C@@H](C)O)NC(=O)[C@H](CCCNC(=N)N)NC(=O)[C@@H]4CCCN4C1=O)NC(=O)[C@H](CC(=O)O)NC(=O)[C@H](CO)NC(=O)[C@H](CC(=O)O)NC(=O)[C@H](CCC(N)=O)NC(=O)[C@H](CO)NC3=O)C(=O)N[C@@H](C(C)C)C(=O)N2` (some centres unmarked) [fluorine-18 labelled] the tissue uptake was 0.2 ± 0.17 %ID/g (nude mice U-87 MG xenograft, bone; intravenous, 2.5 h).
For `CC(C)C(=O)OC[C@H]1O[C@@H](n2ccc(NO)nc2=O)[C@H](O)[C@@H]1O`, “biotransformation and biodistribution” read “no effect” (microdialysis; pregnant rat, blood, fetus, placenta, amniotic fluid; iv, 100 mg/kg, added: NBMPR 10 mg/kg; relative to: compound alone).
`CCCCCCCCCCCCCCCCCC[N+](C)(C)CCCCCCCCCCCCCCCCCC` has an intrinsic clearance of 0.118 mL/h/mg protein (substrate depletion; human liver microsomes; 0.5 µM, 0 to 3 h, 37 °C, added: NADPH).
Under “tissue to peel content ratio”, `COc1ccc(-c2cc(=O)c3c(OC)c(OC)c(OC)c(OC)c3o2)cc1OC` is recorded as 0.086% (C57BL/6 mouse, male, plasma; oral, 1% w/w in diet, 6 weeks, orange peel extract diet; relative to: content in orange peel).
`[Met(O)35]Aβ42` — result for “time to β-sheet transition”: 48 to 72 h (CD spectroscopy; 10 mM sodium phosphate; 10 µM, pH 7.4, 25 °C, agitation 200 rpm).
For `CCCCCOc1ccc(-c2cc(-c3ccc(C(=O)N[C@H]4C[C@@H](O)[C@@H](O)NC(=O)[C@@H]5[C@@H](O)[C@@H](C)CN5C(=O)[C@H]([C@H](O)CC(N)=O)NC(=O)[C@H]([C@H](O)[C@@H](O)c5ccc(O)c(OS(=O)(=O)O)c5)NC(=O)[C@@H]5C[C@@H](O)CN5C(=O)[C@H]([C@@H](C)O)NC4=O)cc3)no2)cc1`, the AUC(0-tau) was 249000 ng·h/mL (human paediatric patients 2 to 5 years, plasma; intravenous, 4.5 mg/kg once daily, day 7, mean).
For `CC1(C)S[C@@H]2[C@H](NC(=O)[C@H](C(=O)O)c3ccsc3)C(=O)N2[C@H]1C(=O)O`, the measured concentration was 29.4 ± 1.4 ng/mL (rat plasma; 30 ng/mL, -20 °C to room temperature, three freeze-thaw cycles).
Under “k1 and k2 rate constants”, `O=C(C[18F])NCCCCCC(=O)Nc1ccccc1` is recorded as 10 to 20 fold (dynamic PET; rhesus monkey, brain regions; intravenous; relative to: [18F]FACE).
With `[123I]c1cncc(OC[C@@H]2CCN2)c1` the tissue/plasma ratio was 19.4 (SPECT; human, cingulate gyrus; intravenous bolus plus infusion, 8.1 mCi; relative to: tissue over plasma).
`CC[C@H](C)[C@H](NC(=O)[C@H](C)NC(=O)[C@H](CCCCN)NC(=O)[C@H](CC(C)C)NC(=O)[C@H](C)NC(=O)[C@@H](NC(=O)[C@H](Cc1c[nH]cn1)NC(=O)[C@H](CC(C)C)NC(=O)[C@@H](NC(=O)[C@@H](NC(=O)[C@H](CCCCN)NC(=O)[C@H](CCCCN)NC(=O)[C@H](C)NC(=O)[C@H](CO)NC(=O)[C@H](CCCCN)NC(=O)[C@H](Cc1ccccc1)NC(=O)[C@@H](NC(=O)[C@H](CCCCN)NC(=O)[C@H](CC(C)C)NC(=O)[C@H](Cc1ccccc1)NC(=O)[C@H](CO)NC(=O)[C@H](CCCCN)NC(=O)[C@H](Cc1c[nH]c2ccccc12)NC(=O)[C@H](CCCCN)NC(C)=O)[C@@H](C)O)[C@@H](C)O)C(C)C)[C@@H](C)O)C(=O)N[C@@H](CO)C(=O)N[C@@H](CO)C(N)=O` — result for “mean residue ellipticity”: -3300 deg cm² dmol⁻¹ (circular dichroism at 222 nm; KCl phosphate buffer; 75 µM, pH 7.4, 30 °C).
`O=c1oc2c(O)c(O)cc3c(=O)oc4c(O)c(O)cc1c4c23` has a pKa1 of 3.63 (potentiometric titration; water, extrapolated from methanol/water; 25 °C).
The AUC(0-tlast) of `CC[C@H](C)[C@H](NC(=O)[C@H](CC(C)C)NC(=O)[C@H](Cc1c[nH]c2ccccc12)NC(=O)[C@H](CCC(N)=O)NC(=O)[C@@H](NC(=O)[C@H](Cc1ccccc1)NC(=O)[C@H](C)NC(=O)[C@H](CCCCNC(=O)COCCOCCNC(=O)COCCOCCNC(=O)CC[C@H](NC(=O)CCCCCCCCCCCCCCCCCCC(=O)O)C(=O)O)NC(=O)[C@H](CCC(N)=O)NC(=O)[C@H](C)NC(=O)[C@@H](NC(=O)[C@H](CCCCN)NC(=O)[C@H](CC(=O)O)NC(=O)[C@H](CC(C)C)NC(=O)C(C)(C)NC(=O)[C@@H](NC(=O)[C@H](CO)NC(=O)[C@H](Cc1ccc(O)cc1)NC(=O)[C@H](CC(=O)O)NC(=O)[C@H](CO)NC(=O)[C@@H](NC(=O)[C@H](Cc1ccccc1)NC(=O)[C@@H](NC(=O)CNC(=O)[C@H](CCC(=O)O)NC(=O)C(C)(C)NC(=O)[C@@H](N)Cc1ccc(O)cc1)[C@@H](C)O)[C@@H](C)O)[C@@H](C)CC)[C@@H](C)CC)C(C)C)C(=O)N[C@@H](C)C(=O)NCC(=O)NCC(=O)N1CCC[C@H]1C(=O)N[C@@H](CO)C(=O)N[C@@H](CO)C(=O)NCC(=O)N[C@@H](C)C(=O)N1CCC[C@H]1C(=O)N1CCC[C@H]1C(=O)N1CCC[C@H]1C(=O)N[C@@H](CO)C(N)=O` is reported as 82200 ng·h/mL (human, normal hepatic function, plasma; subcutaneous, 5 mg single dose, geometric mean).
With `CC(C)(NC(=O)c1nn(Cc2ccc(F)cc2)c2ccccc12)c1cccc(C(N)=O)c1` the half-life was 1.1 h (C57BL/6 mouse, plasma; intraperitoneal, 2.5 mg/kg).
`CS(=O)(=O)CCCn1c(Cn2c(=O)n(CC(F)(F)F)c3ccncc32)cc2cc(Cl)ccc21`: “patients with low MCH” 25% (RSV-infected infants; concentration not given, mid-high dose cohort).
For `CC(C)c1nc(CN(C)C(=O)N[C@H](C(=O)N[C@@H](Cc2ccccc2)C[C@H](O)[C@H](Cc2ccccc2)NC(=O)OCc2cncs2)C(C)C)cs1`, the AUC(0-24) was 6780 ng·h/mL (healthy human volunteers, plasma; oral, dose not given, alone, escitalopram interaction study).
With `CC(C)C[C@H](NC(=O)[C@H](CCC(=O)O)NC(=O)[C@H](CCC(=O)O)NC(=O)[C@H](CC(=O)O)NC(=O)[C@H](CCC(=O)O)NC(=O)[C@H](CCC(=O)O)NC(=O)[C@H](CCC(=O)O)NC(=O)[C@@H](N)CC(=O)O)C(=O)O` the concentration was 1.03 ng/mL (rat, CSF; intranasal, 5.5 mg/kg, 60 min).
`CC[C@H](C)[C@H](NC(=O)CN)C(=O)NCC(=O)N[C@@H](C)C(=O)N[C@H](C(=O)N[C@@H](CC(C)C)C(=O)N[C@@H](CCCCN)C(=O)N[C@H](C(=O)N[C@@H](CC(C)C)C(=O)N[C@H](C(=O)N[C@H](C(=O)NCC(=O)N[C@@H](CC(C)C)C(=O)N1CCC[C@H]1C(=O)N[C@@H](C)C(=O)N[C@@H](CC(C)C)C(=O)N[C@H](C(=O)N[C@@H](CO)C(=O)N[C@@H](Cc1c[nH]c2ccccc12)C(=O)N[C@H](C(=O)N[C@@H](CCCCN)C(=O)N[C@@H](CCCNC(=N)N)C(=O)N[C@@H](CCCCN)C(=O)N[C@@H](CCCNC(=N)N)C(=O)N[C@@H](CCC(N)=O)C(=O)N[C@@H](CCC(N)=O)C(N)=O)[C@@H](C)CC)[C@@H](C)CC)[C@@H](C)O)[C@@H](C)O)C(C)C)C(C)C` has a hemolysis of 86 ± 17% (sheep erythrocytes; 15 µM, 1 h, pH 7.4; relative to: water lysis).
`NC(=O)c1nc(F)c[nH]c1=O` gave a solubility of 2330 µg/mL (≈ 14.8 mM) (UV-Vis spectrophotometry; supercritical CO2; 120 min, 328 K, 30 MPa, 850.83 kg/m^3).
`CN[C@@](C)(C[18F])C(=O)O` has a tissue uptake of 0.4 ± 0.1 %ID/g (SCID mouse A549 xenograft, brain; 15 min, post injection).
For `CC(C)C[C@@H]1NC(=O)[C@@H](NC(=O)CN)CSSC[C@@H]2NC(=O)[C@@H]3CSSC[C@@H](C(=O)N[C@@H](CC(N)=O)C(=O)N[C@@H](Cc4ccccc4)C(=O)N[C@@H](CO)C(=O)N[C@@H](Cc4ccccc4)C(N)=O)NC(=O)[C@H](CC(C)C)NC(=O)[C@H](CCCCN)NC(=O)[C@H](Cc4ccccc4)NC(=O)[C@H](CC(C)C)NC(=O)[C@H](CCCCN)NC(=O)[C@H](CO)NC(=O)[C@H](CSSC[C@H](NC(=O)[C@H](CCCCN)NC(=O)[C@H](Cc4c[nH]c5ccccc45)NC(=O)[C@H](Cc4c[nH]c5ccccc45)NC(=O)[C@H](Cc4ccccc4)NC(=O)[C@H](CCC(=O)O)NC1=O)C(=O)N[C@@H](CC(N)=O)C(=O)N1CCC[C@H]1C(=O)N[C@@H](CC(N)=O)C(=O)N[C@@H](CC(=O)O)C(=O)N[C@@H](CC(=O)O)C(=O)N[C@@H](CCCCN)C(=O)N3)NC(=O)[C@H](CCCCN)NC(=O)[C@H](CC(C)C)NC(=O)[C@H](CCCCN)NC(=O)[C@@H]1CCCN1C(=O)[C@H](CCCNC(=N)N)NC2=O`, “reduction of free concentration” read roughly 20 fold (ultrafiltration, HPLC; medium with 10% serum; 50 µM, 10 min; relative to: serum-free medium).

A few entries again:
Under “k1 and k2 rate constants”, `O=C(C[18F])NCCCCCC(=O)Nc1ccccc1` is recorded as 10 to 20 fold (dynamic PET; rhesus monkey, brain regions; intravenous; relative to: [18F]FACE).
`CCCCCCCCCCCCCCCCCC[N+](C)(C)CCCCCCCCCCCCCCCCCC` has an intrinsic clearance of 0.118 mL/h/mg protein (substrate depletion; human liver microsomes; 0.5 µM, 0 to 3 h, 37 °C, added: NADPH).
The AUC(0-tlast) of `CC[C@H](C)[C@H](NC(=O)[C@H](CC(C)C)NC(=O)[C@H](Cc1c[nH]c2ccccc12)NC(=O)[C@H](CCC(N)=O)NC(=O)[C@@H](NC(=O)[C@H](Cc1ccccc1)NC(=O)[C@H](C)NC(=O)[C@H](CCCCNC(=O)COCCOCCNC(=O)COCCOCCNC(=O)CC[C@H](NC(=O)CCCCCCCCCCCCCCCCCCC(=O)O)C(=O)O)NC(=O)[C@H](CCC(N)=O)NC(=O)[C@H](C)NC(=O)[C@@H](NC(=O)[C@H](CCCCN)NC(=O)[C@H](CC(=O)O)NC(=O)[C@H](CC(C)C)NC(=O)C(C)(C)NC(=O)[C@@H](NC(=O)[C@H](CO)NC(=O)[C@H](Cc1ccc(O)cc1)NC(=O)[C@H](CC(=O)O)NC(=O)[C@H](CO)NC(=O)[C@@H](NC(=O)[C@H](Cc1ccccc1)NC(=O)[C@@H](NC(=O)CNC(=O)[C@H](CCC(=O)O)NC(=O)C(C)(C)NC(=O)[C@@H](N)Cc1ccc(O)cc1)[C@@H](C)O)[C@@H](C)O)[C@@H](C)CC)[C@@H](C)CC)C(C)C)C(=O)N[C@@H](C)C(=O)NCC(=O)NCC(=O)N1CCC[C@H]1C(=O)N[C@@H](CO)C(=O)N[C@@H](CO)C(=O)NCC(=O)N[C@@H](C)C(=O)N1CCC[C@H]1C(=O)N1CCC[C@H]1C(=O)N1CCC[C@H]1C(=O)N[C@@H](CO)C(N)=O` is reported as 82200 ng·h/mL (human, normal hepatic function, plasma; subcutaneous, 5 mg single dose, geometric mean).
For `CCCCCOc1ccc(-c2cc(-c3ccc(C(=O)N[C@H]4C[C@@H](O)[C@@H](O)NC(=O)[C@@H]5[C@@H](O)[C@@H](C)CN5C(=O)[C@H]([C@H](O)CC(N)=O)NC(=O)[C@H]([C@H](O)[C@@H](O)c5ccc(O)c(OS(=O)(=O)O)c5)NC(=O)[C@@H]5C[C@@H](O)CN5C(=O)[C@H]([C@@H](C)O)NC4=O)cc3)no2)cc1`, the AUC(0-tau) was 249000 ng·h/mL (human paediatric patients 2 to 5 years, plasma; intravenous, 4.5 mg/kg once daily, day 7, mean).
